Assay results of several laboratories.
Each numbered part is a random draw from the data of one study; scales do not carry over between parts. Positions count from the first letter of the parent shown.

Sample 1
Target: ABI1, truncated, D143A, DHFR fusion (Arabidopsis thaliana)
Method: DHFR PCA, deep sequencing
Matrix: yeast
Notes: methotrexate growth selection, single substitutions
With: (+)-ABA 0 µM
Reference: wild-type fitted maximum
Reading: higher = stronger binding
Parent: PYL1, truncated, DHFR fusion (Arabidopsis thaliana); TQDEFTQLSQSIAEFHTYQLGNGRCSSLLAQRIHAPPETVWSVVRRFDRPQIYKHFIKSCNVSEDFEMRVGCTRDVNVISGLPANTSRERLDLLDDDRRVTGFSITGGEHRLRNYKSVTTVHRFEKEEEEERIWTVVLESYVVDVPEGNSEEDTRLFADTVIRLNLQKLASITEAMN
`T17Y`: “relative binding score” -2.95%.
Under “relative binding score”, `A35R` is recorded as 0.71%.
`Y115C`: “relative binding score” 6.67%.
`M68S` — result for “relative binding score”: -0.446%.
For `H55D`, “relative binding score” read 1.16%.
Under “relative binding score”, `V43A` is recorded as 0.574%.
`F157W`: “relative binding score” 32.9%.
Under “relative binding score”, `T173Q` is recorded as -0.824%.
Under “relative binding score”, `T86C` is recorded as 24.4%.
`R155K`: “relative binding score” 46.2%.
`W134F`: “relative binding score” 17.3%.
Under “relative binding score”, `T160S` is recorded as 6.29%.
`T106A`: “relative binding score” -2.04%.
`R49V`: “relative binding score” -0.63%.
`E128D` — result for “relative binding score”: 44.3%.
`R111H` — result for “relative binding score”: 5.76%.
For `W41A`, “relative binding score” read -0.637%.
`V76A`: “relative binding score” -1.27%.
For `F66D`, “relative binding score” read 3.76%.
Under “relative binding score”, `T119M` is recorded as 4.82%.
For `D95A`, “relative binding score” read -2.2%.
Under “relative binding score”, `I12A` is recorded as 2.88%.
Under “relative binding score”, `Y141M` is recorded as -9.99%.
`F124Q` — result for “relative binding score”: 7.64%.

Sample 2
Target: RNA binding protein fox-1 homolog 2, RRM domain, GST-SBP tag (RBFOX2, Homo sapiens, UniProt O43251-10, residues 100-194)
Method: RNA Bind-n-Seq
Molecule type: RNA
Matrix: in vitro
Concentration: 365 nM
Notes: natural RNA segment, single round, ends assumed
Reference: no-protein control
Reading: higher = stronger binding
Shared flanks, not repeated: GGGAGUUCUACAGUCCGACGAUC … UGGAAUUCUCGGGUGCCAA
Residues (chain): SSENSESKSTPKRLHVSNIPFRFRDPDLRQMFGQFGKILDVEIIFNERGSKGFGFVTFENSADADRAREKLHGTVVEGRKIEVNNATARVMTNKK
Under “RBNS enrichment (R)”, `UCUUGUUCUCACUGCUGAACUGGUGUUUAAAAUUCUUCGCAGGUCAGAAGUUUGGGAACUCAAAAGUGACAUCAGGAAAGUUAGGAAAAAGUCCACUGUCAACAUUAUCA` is recorded as 0.697.
For `GAAAGAGAGGAAGAGAGAAGCAAACAUGUAGGAAAAAAUAUAAAUCAGCCCCAUUCUCCCAUUCUUUAAGAACAAUGAUUUUUCUUGAUGGAAAAUGCAUAUCACUUGAC`, “RBNS enrichment (R)” read 0.6.
`AUGUACACAUGUCUGUCUACUGUGCUUUCAGACAUAGAUAAAGCAUGAUAAAGAUUAUUAUUUAAGAUAUACUUGUAUUUAUACCUCAGAUAUUCUUUCGGGUUUUGUAC` — result for “RBNS enrichment (R)”: 3.07.
For `CAUUACUCAAGAUUUACACAGGCAAGUGACUUCAUUUGGCACUGCUAAUAAUGGCAGGUGAACAUUCCUCUCAGGUGUGAGAUAUUUCCUAUGAAACAGUCCACUGGCAG`, “RBNS enrichment (R)” read 0.307.
`CCAGACUUGCACUGGGGUAGGAUAUGGAACGAUGGGGAGGUUUUUAAGGGCCGGGGAUGGAUCUUUUCUAAAUGUUAUUACUUGUAAAUAAAGUCUAUUUUUCUCCCUUG`: “RBNS enrichment (R)” 0.569.
`UCGGCUCUCCAAUUUAACUCUUUGGCAACAGGAAACAGGUUUUGCAAGUUCAAGGUUCACUCCCUAUAUGUGAUUAUAGGAAUUGUUUGUGGAAAUGGAUUAACAUACCC`: “RBNS enrichment (R)” 0.436.
Under “RBNS enrichment (R)”, `CUUUUCUAUUACUAAAUCUGAAAUAAAAUCAGUUUCUUUCCAGUUUAAAUGUUAACCAUUUGCAGAUUGCAUUAGCAUGUCUCUGCCUCUCUACCCUGAAAUGGGUGAAG` is recorded as 2.45.
`GUGUGUGUGUGUGUGAGCGAGCAUGUGCUGUCUGCAUAUGGAAAUAACUACAGCACAGGCUACCUUGCUGAUGUGUCCAUGUCACUGGUCUCCCUUUUAGCUAAAAUCUG`: “RBNS enrichment (R)” 1.34.
Under “RBNS enrichment (R)”, `UGACGACGACGAUGAUGAUAGCAGUGACUAAGGAUAUGCUGUGAAGUAUUUAAUUGACUGCCUGAGAGUCAGCUUUGGGGGCGCUCUCAGUUUGCUUUAGCCAUGACUGC` is recorded as 0.69.
For `UGGUCACUAGCUGAUCUGUGAUGGCGUCCCUUCCCCCAUUGAUUUUCUGUGUUUGAAGUAUGUGCAUAUGUGCUUUACAGAAUAAAACAUCUGGAUUUACUUGGUUUGCC`, “RBNS enrichment (R)” read 0.382.
`GCACACAGAUCGCACCACAUGGCUUGUAAUGAUUUUCUGUGUCUGUCAUCGUCAGCGUGUCAUCUGGAUGUACGAAGGUAGUAAAAAAGGGUUUCAGAACAGAGCCACGG` — result for “RBNS enrichment (R)”: 0.662.
`GCUUUUAAAAAAGUGUUCCCUAUUUAUUUAGGAAAAAGUGAAGCAAGCAACUGAAUUUAUAUGUAAAAAUAACAUUUAGACCUGUGGAUCAAAGAUUAUUUUCAAAAAUG` — result for “RBNS enrichment (R)”: 0.421.

Sample 3
Target: MAFF, bZIP domain (human)
Method: DHFR protein complementation
Matrix: yeast
Notes: single substitutions, most at no-binding floor
Reference: wild-type JUN-FOS pair
Reading: higher = stronger binding
Parent: JUN, bZIP domain (human); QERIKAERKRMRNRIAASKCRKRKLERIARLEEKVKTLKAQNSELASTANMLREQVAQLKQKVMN; partner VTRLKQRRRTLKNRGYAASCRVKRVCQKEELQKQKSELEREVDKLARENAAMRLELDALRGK
With `A49P` the binding fitness was -1.54 natural log.
With `I28N` the binding fitness was -1.5 natural log.
With `N42V` the binding fitness was -0.925 natural log.
For `N42L`, the binding fitness was -1.17 natural log.
`V56R` gave a binding fitness of -1.29 natural log.
`S43G` has a binding fitness of -1.45 natural log.
With `Q55K` the binding fitness was -1.5 natural log.
With `E32I` the binding fitness was -1.52 natural log.
`E54A` has a binding fitness of -1.45 natural log.
`L52F` gave a binding fitness of -1.45 natural log.
For `L38V`, the binding fitness was -1.59 natural log.
For `Q55C`, the binding fitness was -1.45 natural log.
With `V35T` the binding fitness was -1.47 natural log.
`S43F` has a binding fitness of -1.4 natural log.
For `E32P`, the binding fitness was -1.4 natural log.
With `S43W` the binding fitness was -1.52 natural log.

Sample 4
Target: CCNB1, cyclin fold, Cln2 fusion (human)
Method: yeast growth competition, sequencing
Matrix: yeast
Notes: strong parent motif
Reference: not given
Reading: higher = stronger binding
Parent: PKMYT1 docking peptide (human); SFEPRNLLSLFED
`SFPPRNLLSLFED [E3P]`: “normalised enrichment score” 0.806.
Under “normalised enrichment score”, `SEEPRNLLSLFED [F2E]` is recorded as -0.325.
Under “normalised enrichment score”, `SSEPRNLLSLFED [F2S]` is recorded as -0.096.
Under “normalised enrichment score”, `SFEPRNILSLFED [L7I]` is recorded as 0.983.
For `SFEPRILLSLFED [N6I]`, “normalised enrichment score” read 0.253.
`SFDPRNLLSLFED [E3D]` — result for “normalised enrichment score”: 0.156.
Under “normalised enrichment score”, `SFEPRNCLSLFED [L7C]` is recorded as -0.0781.
For `RFEPRNLLSLFED [S1R]`, “normalised enrichment score” read 0.877.
`SFEPRNLLSLFEE [D13E]`: “normalised enrichment score” 1.6.
`SFEPRNLLSAFED [L10A]`: “normalised enrichment score” 1.16.
Under “normalised enrichment score”, `SFEPRNLLVLFED [S9V]` is recorded as 1.29.
`SFEPRCLLSLFED [N6C]` — result for “normalised enrichment score”: 2.
`SFEPRNNLSLFED [L7N]`: “normalised enrichment score” -0.0288.
Under “normalised enrichment score”, `MFEPRNLLSLFED [S1M]` is recorded as 1.42.
`SFEPKNLLSLFED [R5K]` — result for “normalised enrichment score”: 1.8.
Under “normalised enrichment score”, `SFEPMNLLSLFED [R5M]` is recorded as 1.18.
For `SFEPRNLLSLDED [F11D]`, “normalised enrichment score” read -0.487.
`SCEPRNLLSLFED [F2C]` — result for “normalised enrichment score”: 0.887.
Under “normalised enrichment score”, `SFEPRNLLSYFED [L10Y]` is recorded as 1.01.
For `SFEPRTLLSLFED [N6T]`, “normalised enrichment score” read -0.222.
Under “normalised enrichment score”, `SFEPRNKLSLFED [L7K]` is recorded as -0.208.
For `SFEPRNLLSMFED [L10M]`, “normalised enrichment score” read 1.21.
`SFEPRNLLSCFED [L10C]` — result for “normalised enrichment score”: 0.475.
`SFEPRNLGSLFED [L8G]` — result for “normalised enrichment score”: -0.195.
`SFEPRNLLSLFLD [E12L]`: “normalised enrichment score” 0.114.

Sample 5
Target: Interferon regulatory factor 5, full length, phosphomimetic (IRF5, Homo sapiens, UniProt Q13568-2, residues 1-514, S451D/S453D/S456D/S462D)
Method: protein-binding microarray
Molecule type: double-stranded DNA, one strand shown
Matrix: in vitro
Concentration: 940 nM top
Notes: 60-bp whole probe
With: salmon DNA 0.4 mg/ml
Reference: random background probes
Reading: higher = stronger binding
Shared flanks, not repeated: GCCTAGCAC … GTCTTGATTCGCTTGACGCTGCTG
`TTCATTCCTGATCTCTGGTCGTGCTAG`: “fitted relative affinity” 0.348 z-score.
`TTAGGTTTCGGGTTTTGGTTAGTGCTA`: “fitted relative affinity” 9.23 z-score.
`GACGATATCGGGACTGGACACGTGCTA`: “fitted relative affinity” -0.0392 z-score.
`TTAGAACTGGGGTTTGGATTAGTGCTA`: “fitted relative affinity” -0.196 z-score.
Under “fitted relative affinity”, `TTAGGACTGCTTTTCCTTTGGTGCTAG` is recorded as -0.138 z-score.
For `TCAGAACTGAGTTTCGATTAGTGCTAG`, “fitted relative affinity” read 7.76 z-score.
For `GACGATTTCGGTTATCGAGACGTGCTA`, “fitted relative affinity” read 2.05 z-score.
Under “fitted relative affinity”, `TTAGGTTTCGTACTGCTTTAGTGCTAG` is recorded as 6.48 z-score.
Under “fitted relative affinity”, `GACGGTTTCCTTACCCTGACGTGCTAG` is recorded as 1.26 z-score.
For `GACGAACTGGGATATCGAGACGTGCTA`, “fitted relative affinity” read -0.295 z-score.
Under “fitted relative affinity”, `TCATAAACTAGAAACTGAACTGTGCTA` is recorded as -0.095 z-score.
`GACGATATCAGACTTGAGACGTGCTAG` — result for “fitted relative affinity”: -0.781 z-score.
`GACGATATCGGGATTGGAGACGTGCTA` — result for “fitted relative affinity”: -0.345 z-score.
For `GACCATATCAGTATCGAGACGTGCTAG`, “fitted relative affinity” read 2.16 z-score.
For `TTAGGTTACGGTTTCGGTTAGTGCTAG`, “fitted relative affinity” read 7.36 z-score.
Under “fitted relative affinity”, `GACGGTCTCATTCTCCTGACGTGCTAG` is recorded as 1.87 z-score.
`TCATTACTTTCTATCTCACTGTGCTAG`: “fitted relative affinity” 3.26 z-score.
Under “fitted relative affinity”, `GACGGTATCGGTATCGGCACGTGCTAG` is recorded as 9.02 z-score.

Some of these lines once more (sample 3):
With `I28N` the binding fitness was -1.5 natural log.
With `N42V` the binding fitness was -0.925 natural log.
For `N42L`, the binding fitness was -1.17 natural log.
`V56R` gave a binding fitness of -1.29 natural log.
`S43G` has a binding fitness of -1.45 natural log.
With `Q55K` the binding fitness was -1.5 natural log.
With `E32I` the binding fitness was -1.52 natural log.
`E54A` has a binding fitness of -1.45 natural log.
`L52F` gave a binding fitness of -1.45 natural log.
For `L38V`, the binding fitness was -1.59 natural log.
For `Q55C`, the binding fitness was -1.45 natural log.
